Results collected from several papers.
Numbered parts are unrelated; each lists some results of a single study.
Sequence of UniProt P09769 (whole entry, looked up): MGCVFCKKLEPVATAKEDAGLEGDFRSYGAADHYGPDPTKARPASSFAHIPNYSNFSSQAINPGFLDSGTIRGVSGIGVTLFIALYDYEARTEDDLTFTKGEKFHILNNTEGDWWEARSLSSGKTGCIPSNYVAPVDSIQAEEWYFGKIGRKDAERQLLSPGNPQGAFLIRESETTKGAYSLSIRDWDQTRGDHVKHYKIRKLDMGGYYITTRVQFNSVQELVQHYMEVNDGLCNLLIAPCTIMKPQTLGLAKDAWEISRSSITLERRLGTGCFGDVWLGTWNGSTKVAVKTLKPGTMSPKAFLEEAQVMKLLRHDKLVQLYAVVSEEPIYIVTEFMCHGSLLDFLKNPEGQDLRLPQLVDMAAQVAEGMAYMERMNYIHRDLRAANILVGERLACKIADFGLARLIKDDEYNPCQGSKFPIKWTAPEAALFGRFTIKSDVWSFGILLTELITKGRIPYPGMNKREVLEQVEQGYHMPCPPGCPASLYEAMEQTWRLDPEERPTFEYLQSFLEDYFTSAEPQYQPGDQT
Sequence of UniProt P08581 (whole entry, looked up): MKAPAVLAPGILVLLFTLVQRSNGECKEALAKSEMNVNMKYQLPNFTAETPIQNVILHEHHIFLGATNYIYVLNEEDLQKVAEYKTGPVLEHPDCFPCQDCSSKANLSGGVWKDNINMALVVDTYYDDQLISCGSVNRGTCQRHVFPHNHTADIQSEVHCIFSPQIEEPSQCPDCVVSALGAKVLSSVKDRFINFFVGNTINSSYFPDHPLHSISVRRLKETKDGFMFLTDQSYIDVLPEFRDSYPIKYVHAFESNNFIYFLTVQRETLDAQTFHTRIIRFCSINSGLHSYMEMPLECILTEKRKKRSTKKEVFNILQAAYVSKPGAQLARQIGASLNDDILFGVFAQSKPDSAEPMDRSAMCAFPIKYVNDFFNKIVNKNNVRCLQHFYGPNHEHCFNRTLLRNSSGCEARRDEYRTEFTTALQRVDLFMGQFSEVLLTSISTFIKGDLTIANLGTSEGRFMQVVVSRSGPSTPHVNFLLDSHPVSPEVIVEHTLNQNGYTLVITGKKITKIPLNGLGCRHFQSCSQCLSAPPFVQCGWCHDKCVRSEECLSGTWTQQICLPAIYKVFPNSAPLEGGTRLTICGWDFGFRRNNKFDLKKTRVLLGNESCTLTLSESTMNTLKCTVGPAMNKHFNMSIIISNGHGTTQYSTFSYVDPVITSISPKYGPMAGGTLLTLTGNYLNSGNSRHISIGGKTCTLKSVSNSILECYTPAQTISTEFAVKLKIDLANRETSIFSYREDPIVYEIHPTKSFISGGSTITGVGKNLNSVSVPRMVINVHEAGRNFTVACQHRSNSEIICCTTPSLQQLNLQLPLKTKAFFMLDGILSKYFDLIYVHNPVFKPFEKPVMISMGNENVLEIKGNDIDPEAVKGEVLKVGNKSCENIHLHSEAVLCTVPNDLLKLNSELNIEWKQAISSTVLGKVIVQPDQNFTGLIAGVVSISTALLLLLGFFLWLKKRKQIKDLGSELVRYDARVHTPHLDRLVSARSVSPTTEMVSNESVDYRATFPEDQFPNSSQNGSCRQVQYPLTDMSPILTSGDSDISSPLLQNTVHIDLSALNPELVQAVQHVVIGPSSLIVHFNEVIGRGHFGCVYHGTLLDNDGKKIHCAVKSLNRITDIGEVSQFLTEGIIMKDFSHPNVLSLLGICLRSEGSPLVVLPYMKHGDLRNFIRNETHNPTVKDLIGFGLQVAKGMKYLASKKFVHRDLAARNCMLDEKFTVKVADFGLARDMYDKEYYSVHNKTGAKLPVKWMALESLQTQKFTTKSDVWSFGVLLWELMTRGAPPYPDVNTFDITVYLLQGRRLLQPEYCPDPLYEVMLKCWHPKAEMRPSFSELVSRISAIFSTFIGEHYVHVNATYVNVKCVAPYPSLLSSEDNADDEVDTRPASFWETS
Sequence of UniProt Q8IW41 (whole entry, looked up): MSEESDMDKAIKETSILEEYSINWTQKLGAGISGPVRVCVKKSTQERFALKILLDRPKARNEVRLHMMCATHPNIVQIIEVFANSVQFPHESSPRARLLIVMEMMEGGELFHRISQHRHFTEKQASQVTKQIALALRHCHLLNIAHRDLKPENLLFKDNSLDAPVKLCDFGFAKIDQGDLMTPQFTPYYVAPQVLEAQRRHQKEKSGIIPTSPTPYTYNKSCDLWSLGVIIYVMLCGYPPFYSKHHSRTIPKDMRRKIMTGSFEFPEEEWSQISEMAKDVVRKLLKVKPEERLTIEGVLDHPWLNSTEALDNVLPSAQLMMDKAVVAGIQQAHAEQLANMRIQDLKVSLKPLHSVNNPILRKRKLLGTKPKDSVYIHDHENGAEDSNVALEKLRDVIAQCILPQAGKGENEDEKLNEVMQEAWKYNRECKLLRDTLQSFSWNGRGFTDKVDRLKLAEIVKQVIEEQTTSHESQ
Sequence of UniProt Q9P1W9 (whole entry, looked up): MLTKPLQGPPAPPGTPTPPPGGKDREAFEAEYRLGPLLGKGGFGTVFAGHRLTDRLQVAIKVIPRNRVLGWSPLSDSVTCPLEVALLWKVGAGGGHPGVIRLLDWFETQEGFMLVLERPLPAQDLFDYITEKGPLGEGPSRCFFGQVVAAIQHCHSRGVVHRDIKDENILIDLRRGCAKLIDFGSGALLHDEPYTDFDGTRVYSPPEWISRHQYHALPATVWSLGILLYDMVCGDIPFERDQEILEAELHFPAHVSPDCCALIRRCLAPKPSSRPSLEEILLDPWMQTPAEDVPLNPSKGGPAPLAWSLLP

Block 1 — endpoint: remaining binding
SMILES: COc1cc(-c2nc3ccc(C(=O)NCCCN4CCN(c5cccc(C)c5C)CC4)cc3n2C2CCC2)cc(OC)c1OC
Tyrosine-protein kinase Lck (LCK, Homo sapiens, UniProt P06239); binding, competition with immobilised ligand; 1 µM: 34%
Tyrosine-protein kinase CSK (CSK, Homo sapiens, UniProt P41240); binding, competition with immobilised ligand; 1 µM: 100%
Dual specificity mitogen-activated protein kinase kinase 7 (MAP2K7, Homo sapiens, UniProt O14733); binding, competition with immobilised ligand; 1 µM: 72%
MAP/microtubule affinity-regulating kinase 3 (MARK3, Homo sapiens, UniProt P27448); binding, competition with immobilised ligand; 1 µM: 100%
Hepatocyte growth factor receptor (MET, Homo sapiens, UniProt P08581); binding, competition with immobilised ligand; 1 µM: 48%
Phosphorylase b kinase gamma catalytic chain, skeletal muscle/heart isoform (PHKG1, Homo sapiens, UniProt Q16816); binding, competition with immobilised ligand; 1 µM: 100%
Serine/threonine-protein kinase 32C (STK32C, Homo sapiens, UniProt Q86UX6); binding, competition with immobilised ligand; 1 µM: 100%
Activin receptor type-2A (ACVR2A, Homo sapiens, UniProt P27037); binding, competition with immobilised ligand; 1 µM: 96%
Tyrosine-protein kinase Fgr (FGR, Homo sapiens, UniProt P09769); binding, competition with immobilised ligand; 1 µM: 94%
Citron Rho-interacting kinase (CIT, Homo sapiens, UniProt O14578); binding, competition with immobilised ligand; 1 µM: 96%
Tyrosine-protein kinase Mer (MERTK, Homo sapiens, UniProt Q12866); binding, competition with immobilised ligand; 1 µM: 73%
Serine/threonine-protein kinase ULK3 (ULK3, Homo sapiens, UniProt Q6PHR2); binding, competition with immobilised ligand; 1 µM: 97%
Mitogen-activated protein kinase kinase kinase 5 (MAP3K5, Homo sapiens, UniProt Q99683); binding, competition with immobilised ligand; 1 µM: 96%
Leukocyte tyrosine kinase receptor (LTK, Homo sapiens, UniProt P29376); binding, competition with immobilised ligand; 1 µM: 60%
Activin receptor type-2B (ACVR2B, Homo sapiens, UniProt Q13705); KINOMEscan; 1000 nM: 95%

Block 2 — cell line: U-87 MG; tested at: concentration not given; baseline: DMSO; endpoint: log2 fold change
Structure (SMILES): CCN1/C(=C/C=C2\CCCC(/C=C/C3=[N+](CC)c4ccccc4C3(C)C)=C2NCCCCCCCCN2CCC(Nc3nc4ccccc4n3Cc3ccc(F)cc3)CC2)C(C)(C)c2ccccc21
refers to: BORA mRNA: -1.4
refers to: STOML1 mRNA: -1.11
refers to: NR2F2 mRNA: -1.93
refers to: PRRX1 mRNA: 1.11
refers to: ASPM mRNA: -2.84
refers to: NAA11 mRNA: 5.71
refers to: MSANTD4 mRNA: 1.1
refers to: TGDS mRNA: 0.937
refers to: ARL5B mRNA: 1.36
refers to: FGF18 mRNA: 2.63
refers to: MIA2 mRNA: 1.05
refers to: DBH mRNA: -1.28
refers to: FLNC mRNA: -0.892
refers to: SMAD6 mRNA: -1.63
refers to: MTCL1 mRNA: -0.979
refers to: SHTN1 mRNA: -0.806

Block 3 — effect on: kinase activity; endpoint: inhibition
Structure (SMILES): CNc1ncc2cc(-c3cc(OC)cc(OC)c3Cl)c(=O)n(CCc3ccc(NC(=O)C(C#N)=CC(C)(C)N4CCOCC4)cc3)c2n1
MARK1: Serine/threonine-protein kinase MARK1 (MARK1, Homo sapiens, UniProt Q9P0L2)
Sequence of UniProt Q9P0L2 (whole entry, looked up): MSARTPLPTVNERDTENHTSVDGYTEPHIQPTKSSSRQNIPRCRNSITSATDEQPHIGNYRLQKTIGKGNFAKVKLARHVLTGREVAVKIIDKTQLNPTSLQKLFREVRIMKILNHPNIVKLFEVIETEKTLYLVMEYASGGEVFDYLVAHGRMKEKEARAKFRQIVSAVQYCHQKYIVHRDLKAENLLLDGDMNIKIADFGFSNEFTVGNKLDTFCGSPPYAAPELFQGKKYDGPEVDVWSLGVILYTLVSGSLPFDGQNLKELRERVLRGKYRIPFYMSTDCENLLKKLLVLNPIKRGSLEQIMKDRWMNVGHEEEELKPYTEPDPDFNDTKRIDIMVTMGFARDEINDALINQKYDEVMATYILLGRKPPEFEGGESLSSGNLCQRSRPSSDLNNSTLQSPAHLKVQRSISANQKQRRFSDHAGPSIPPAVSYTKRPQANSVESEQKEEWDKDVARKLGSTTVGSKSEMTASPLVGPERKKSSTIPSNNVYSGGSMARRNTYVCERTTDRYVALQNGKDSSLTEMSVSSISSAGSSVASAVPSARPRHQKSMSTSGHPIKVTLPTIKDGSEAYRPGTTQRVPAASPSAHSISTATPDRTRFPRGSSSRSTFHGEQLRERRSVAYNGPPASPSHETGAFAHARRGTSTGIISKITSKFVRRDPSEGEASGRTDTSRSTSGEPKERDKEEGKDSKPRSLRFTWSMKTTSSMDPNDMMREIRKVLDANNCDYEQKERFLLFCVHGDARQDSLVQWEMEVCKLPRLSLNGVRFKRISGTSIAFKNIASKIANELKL
Ephrin type-B receptor 1 (EPHB1, Homo sapiens, UniProt P54762); 0.1 µM: -1%
Dual specificity protein kinase CLK3 (CLK3, Homo sapiens, UniProt P49761); 0.1 µM: -3%
Ribosomal protein S6 kinase alpha-4 (RPS6KA4, Homo sapiens, UniProt O75676); 0.1 µM: -3%
Tyrosine-protein kinase Fgr (FGR, Homo sapiens, UniProt P09769); 0.1 µM: 2%
Hepatocyte growth factor receptor (MET, Homo sapiens, UniProt P08581); 1 µM: 2%
MARK1; 0.1 µM: 1%
Serine/threonine-protein kinase pim-2 (PIM2, Homo sapiens, UniProt Q9P1W9); 0.1 µM: 1%
MARK1; 1 µM: 0%
Casein kinase II subunit alpha (CSNK2A1, Homo sapiens, UniProt P68400); 0.1 µM: 10%
Serine/threonine-protein kinase SIK1 (SIK1, Homo sapiens, UniProt P57059); 0.1 µM: -2%
BDNF/NT-3 growth factors receptor (NTRK2, Homo sapiens, UniProt Q16620); 0.1 µM: 0%
MAP kinase-activated protein kinase 5 (MAPKAPK5, Homo sapiens, UniProt Q8IW41); 0.1 µM: 1%
Serine/threonine-protein kinase Nek6 (NEK6, Homo sapiens, UniProt Q9HC98); 0.1 µM: 0%

Block 4 — effect on: thermal unfolding; method: differential scanning fluorimetry; tested at: 5.5 µM; reading: higher = more unfolded; endpoint: SYPRO Orange fluorescence
SMILES: C[C@@H]1CN(c2ccc(-c3cc(C(=O)NCCOCCOCCOCCOCCOCCOCCNC(=O)/C=C/c4[nH]cc(C(=O)N[C@@H](CC(N)=O)c5ccc(F)c(Cl)c5)c4-c4ccc(Cl)cc4F)ccc3F)cc2NC(=O)c2ccc(F)cc2C(F)(F)F)C[C@H](C)N1C
DCAF1: DDB1- and CUL4-associated factor 1 (DCAF1, Homo sapiens, UniProt Q9Y4B6)
Sequence of UniProt Q9Y4B6 (whole entry, looked up): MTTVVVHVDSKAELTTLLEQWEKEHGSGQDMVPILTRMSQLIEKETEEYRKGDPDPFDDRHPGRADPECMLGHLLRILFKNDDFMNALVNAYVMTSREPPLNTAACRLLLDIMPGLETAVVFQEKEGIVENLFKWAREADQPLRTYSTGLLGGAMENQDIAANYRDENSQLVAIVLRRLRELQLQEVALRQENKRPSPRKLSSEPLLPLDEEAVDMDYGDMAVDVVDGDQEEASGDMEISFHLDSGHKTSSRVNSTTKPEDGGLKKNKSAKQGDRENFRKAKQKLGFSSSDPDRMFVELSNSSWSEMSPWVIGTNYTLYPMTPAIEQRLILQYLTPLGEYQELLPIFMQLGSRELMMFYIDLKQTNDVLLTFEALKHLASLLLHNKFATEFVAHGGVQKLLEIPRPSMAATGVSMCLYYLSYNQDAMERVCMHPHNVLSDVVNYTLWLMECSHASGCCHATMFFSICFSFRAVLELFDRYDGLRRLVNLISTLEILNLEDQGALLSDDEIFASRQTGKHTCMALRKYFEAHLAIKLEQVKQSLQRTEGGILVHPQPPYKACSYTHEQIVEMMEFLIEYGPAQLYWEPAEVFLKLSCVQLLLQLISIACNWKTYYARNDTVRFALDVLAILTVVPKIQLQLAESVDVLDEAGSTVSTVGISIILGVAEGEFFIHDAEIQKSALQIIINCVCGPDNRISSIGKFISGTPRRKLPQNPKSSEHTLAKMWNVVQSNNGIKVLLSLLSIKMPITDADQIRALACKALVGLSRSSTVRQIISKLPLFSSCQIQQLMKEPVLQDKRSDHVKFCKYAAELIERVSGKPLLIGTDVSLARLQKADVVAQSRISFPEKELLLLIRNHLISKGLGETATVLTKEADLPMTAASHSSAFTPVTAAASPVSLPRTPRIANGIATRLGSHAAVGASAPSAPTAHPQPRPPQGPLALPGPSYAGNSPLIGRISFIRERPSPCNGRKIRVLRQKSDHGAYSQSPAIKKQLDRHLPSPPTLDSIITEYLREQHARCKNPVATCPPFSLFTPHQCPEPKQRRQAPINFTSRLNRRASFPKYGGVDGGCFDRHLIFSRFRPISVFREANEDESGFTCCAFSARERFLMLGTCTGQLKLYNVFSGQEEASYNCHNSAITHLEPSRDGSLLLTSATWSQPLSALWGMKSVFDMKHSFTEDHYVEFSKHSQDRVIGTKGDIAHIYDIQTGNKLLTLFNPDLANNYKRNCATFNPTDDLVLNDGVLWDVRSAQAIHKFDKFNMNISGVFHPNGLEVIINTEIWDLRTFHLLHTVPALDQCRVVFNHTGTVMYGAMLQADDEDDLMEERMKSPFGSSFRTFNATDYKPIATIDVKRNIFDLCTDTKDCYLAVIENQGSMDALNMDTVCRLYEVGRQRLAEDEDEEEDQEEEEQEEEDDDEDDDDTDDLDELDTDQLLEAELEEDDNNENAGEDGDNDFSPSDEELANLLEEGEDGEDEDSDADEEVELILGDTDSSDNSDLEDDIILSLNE
WDR5: WD repeat-containing protein 5 (WDR5, Homo sapiens, UniProt P61964)
DCAF1; 54.01 °C: 24400 a.u.
WDR5; 55.21 °C: 16700 a.u.
DCAF1; 43.2 °C: 13600 a.u.
WDR5; 93.01 °C: 50500 a.u.
DCAF1; 64.01 °C: 54100 a.u.
DCAF1; 29.4 °C: 8220 a.u.
WDR5; 82.61 °C: 65300 a.u.
WDR5; 31.6 °C: 13700 a.u.
WDR5; 91.41 °C: 52700 a.u.
WDR5; 90.61 °C: 54100 a.u.
WDR5; 84.41 °C: 63000 a.u.

For quick reference, copied from above (block 1):
Dual specificity mitogen-activated protein kinase kinase 7 (MAP2K7, Homo sapiens, UniProt O14733); binding, competition with immobilised ligand; 1 µM: 72%
Tyrosine-protein kinase CSK (CSK, Homo sapiens, UniProt P41240); binding, competition with immobilised ligand; 1 µM: 100%
Hepatocyte growth factor receptor (MET, Homo sapiens, UniProt P08581); binding, competition with immobilised ligand; 1 µM: 48%
Activin receptor type-2B (ACVR2B, Homo sapiens, UniProt Q13705); KINOMEscan; 1000 nM: 95%
Mitogen-activated protein kinase kinase kinase 5 (MAP3K5, Homo sapiens, UniProt Q99683); binding, competition with immobilised ligand; 1 µM: 96%
Leukocyte tyrosine kinase receptor (LTK, Homo sapiens, UniProt P29376); binding, competition with immobilised ligand; 1 µM: 60%
Citron Rho-interacting kinase (CIT, Homo sapiens, UniProt O14578); binding, competition with immobilised ligand; 1 µM: 96%
